Assay results collected from several papers.
Each numbered part is a random draw from the data of one study; scales do not carry over between parts. Numbers after ± are the reported error.

By UniProt entry, the sequences of proteins in these tests, tags left out.
UniProt Q13976, whole entry: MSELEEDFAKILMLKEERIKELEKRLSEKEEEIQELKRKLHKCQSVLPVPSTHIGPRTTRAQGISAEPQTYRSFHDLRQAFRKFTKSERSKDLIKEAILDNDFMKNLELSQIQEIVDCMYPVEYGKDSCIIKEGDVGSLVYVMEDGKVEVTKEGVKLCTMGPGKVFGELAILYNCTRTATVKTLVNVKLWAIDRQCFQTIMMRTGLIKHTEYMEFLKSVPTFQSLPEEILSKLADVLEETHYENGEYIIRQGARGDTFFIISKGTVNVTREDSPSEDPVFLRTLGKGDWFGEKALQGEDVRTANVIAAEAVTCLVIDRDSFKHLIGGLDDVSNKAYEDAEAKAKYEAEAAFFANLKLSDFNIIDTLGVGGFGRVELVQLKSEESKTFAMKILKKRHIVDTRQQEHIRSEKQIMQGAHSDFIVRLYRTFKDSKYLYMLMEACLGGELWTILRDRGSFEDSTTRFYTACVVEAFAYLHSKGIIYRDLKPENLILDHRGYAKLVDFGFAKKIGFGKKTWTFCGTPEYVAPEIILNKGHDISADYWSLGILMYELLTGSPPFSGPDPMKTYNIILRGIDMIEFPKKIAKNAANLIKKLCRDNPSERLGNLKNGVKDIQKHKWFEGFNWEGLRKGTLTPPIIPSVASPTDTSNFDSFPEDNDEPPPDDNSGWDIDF
UniProt P08183, whole entry: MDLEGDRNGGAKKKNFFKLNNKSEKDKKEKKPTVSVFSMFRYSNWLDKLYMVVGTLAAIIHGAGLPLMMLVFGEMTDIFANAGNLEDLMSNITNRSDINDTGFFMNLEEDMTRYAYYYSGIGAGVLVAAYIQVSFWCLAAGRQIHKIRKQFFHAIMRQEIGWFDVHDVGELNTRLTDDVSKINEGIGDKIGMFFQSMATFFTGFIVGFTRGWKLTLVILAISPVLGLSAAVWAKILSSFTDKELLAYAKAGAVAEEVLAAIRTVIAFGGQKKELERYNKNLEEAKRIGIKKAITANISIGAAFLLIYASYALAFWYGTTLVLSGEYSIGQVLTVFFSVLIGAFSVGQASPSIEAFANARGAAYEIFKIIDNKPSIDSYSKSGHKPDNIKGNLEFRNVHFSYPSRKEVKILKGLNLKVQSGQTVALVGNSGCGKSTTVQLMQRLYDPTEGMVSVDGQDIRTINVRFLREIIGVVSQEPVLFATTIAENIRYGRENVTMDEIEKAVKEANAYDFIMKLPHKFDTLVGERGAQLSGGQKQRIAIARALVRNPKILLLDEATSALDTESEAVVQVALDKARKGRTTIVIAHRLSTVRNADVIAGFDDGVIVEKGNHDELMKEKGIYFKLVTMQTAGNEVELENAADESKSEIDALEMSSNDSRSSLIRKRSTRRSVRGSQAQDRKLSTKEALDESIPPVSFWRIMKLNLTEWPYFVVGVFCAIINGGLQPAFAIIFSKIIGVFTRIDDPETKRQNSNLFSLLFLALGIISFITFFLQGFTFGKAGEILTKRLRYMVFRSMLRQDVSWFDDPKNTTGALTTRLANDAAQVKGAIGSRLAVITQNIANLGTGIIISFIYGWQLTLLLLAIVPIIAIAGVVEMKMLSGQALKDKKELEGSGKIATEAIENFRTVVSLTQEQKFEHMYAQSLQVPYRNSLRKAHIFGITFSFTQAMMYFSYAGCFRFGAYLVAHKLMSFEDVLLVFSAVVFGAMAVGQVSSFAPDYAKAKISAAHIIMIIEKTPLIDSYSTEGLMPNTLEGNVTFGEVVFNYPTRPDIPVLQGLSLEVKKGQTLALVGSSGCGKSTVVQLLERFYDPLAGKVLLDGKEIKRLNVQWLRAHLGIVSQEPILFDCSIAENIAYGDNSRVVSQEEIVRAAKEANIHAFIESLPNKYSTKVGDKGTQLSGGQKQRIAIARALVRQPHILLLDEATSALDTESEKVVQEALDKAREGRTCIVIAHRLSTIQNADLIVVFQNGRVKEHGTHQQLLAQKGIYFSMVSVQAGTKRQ

Series 1
Target: Nucleotide triphosphate diphosphatase NUDT15 (NUDT15, Homo sapiens, UniProt Q9NV35)
Read-out: enzyme activity
Mode: inhibitor
Method: malachite green
Together with: dGTP
Construct (Q9NV35 1-164): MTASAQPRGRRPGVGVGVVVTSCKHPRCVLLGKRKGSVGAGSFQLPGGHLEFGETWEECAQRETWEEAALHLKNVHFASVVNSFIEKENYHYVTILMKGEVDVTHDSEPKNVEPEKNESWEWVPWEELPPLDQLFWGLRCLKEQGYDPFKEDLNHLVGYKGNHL
`O=C(c1ccc(Br)cc1)N1CCN(S(=O)(=O)c2ccc3[nH]c(=O)oc3c2)CC1` gave an IC50 of 0.046 µM.
`O=C(c1ccccc1Br)N1CCN(S(=O)(=O)c2ccc3[nH]c(=O)oc3c2)CC1` gave an IC50 of 0.174 µM.
`O=C(c1ccc2occc2c1)N1CCN(S(=O)(=O)c2ccc3[nH]c(=O)oc3c2)CC1` has an IC50 of 0.077 µM.

Series 2
Organism: Saccharomyces cerevisiae
Read-out: cell growth
Method: doubling time
Strain: wild type
For `Cc1ccc(N2CCN(C(=O)c3ccc(Cl)c([N+](=O)[O-])c3)CC2)cc1C`, the IC50 was 7.7 ± 3 µM.
`O=C(c1ccc(F)cc1)N1CCN(c2ccccc2)CC1` has an IC50 of > 200 µM.
For `O=C(c1ccc(Cl)c([N+](=O)[O-])c1)N1CCN(c2ccccc2)CC1`, the IC50 was 33.2 ± 6.9 µM.
For `O=C(c1ccc(F)cc1)N1CCN(c2ccc(Cl)cc2)CC1`, the IC50 was 151 ± 14.1 µM.
For `O=C(c1ccc(Cl)c([N+](=O)[O-])c1)N1CCN(c2cccc(C(F)(F)F)c2)CC1`, the IC50 was 104 ± 33.1 µM.

Other studies, line by line
PRKG1: cGMP-dependent protein kinase 1 (PRKG1, Homo sapiens, UniProt Q13976)
For `CCCN(C)Cc1onc(-c2cccc(Cl)c2)c1-c1ccnc(N[C@@H]2CCN(C(=O)c3ccn(C)n3)C2)n1`, the inhibition was 12.2 ± 0.8% (PRKG1; kinase activity, inhibitor, IMAP; 10 µM, together with: FAM-IP3R peptide).
The Km of `CN(C)c1ccc2c(-c3ccc(C(=O)O)s3)c3ccc(=[N+](C)C)cc-3sc2c1` is reported as 140 ± 11 µM (ATP-dependent translocase ABCB1 (ABCB1, Homo sapiens, UniProt P08183); ATPase activity, substrate; half-maximal ATPase stimulation).
`CCN(CC)Cc1onc(-c2cccc(Cl)c2)c1-c1ccnc(N[C@@H]2CCN(C(=O)c3ccn(C)n3)C2)n1` gave an inhibition of 19 ± 9% (PRKG1; kinase activity, inhibitor, IMAP; 10 µM, together with: FAM-IP3R peptide).
